Published values collected from several papers.
Compare with care: the assays were run in different laboratories. “And” joins repeats or separate records; there may be more than shown. ± marks the error that the study gave.
Sequence of UniProt Q6PE15 (whole entry, looked up): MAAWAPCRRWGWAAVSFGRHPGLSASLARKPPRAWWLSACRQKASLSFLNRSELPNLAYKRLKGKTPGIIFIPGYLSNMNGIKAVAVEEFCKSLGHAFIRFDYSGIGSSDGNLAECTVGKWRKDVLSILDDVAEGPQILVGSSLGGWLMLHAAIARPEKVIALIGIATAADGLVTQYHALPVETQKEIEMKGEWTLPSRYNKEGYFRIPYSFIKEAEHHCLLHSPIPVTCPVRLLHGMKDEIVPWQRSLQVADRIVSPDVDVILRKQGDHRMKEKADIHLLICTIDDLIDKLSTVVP
Sequence of UniProt P10721 (whole entry, looked up): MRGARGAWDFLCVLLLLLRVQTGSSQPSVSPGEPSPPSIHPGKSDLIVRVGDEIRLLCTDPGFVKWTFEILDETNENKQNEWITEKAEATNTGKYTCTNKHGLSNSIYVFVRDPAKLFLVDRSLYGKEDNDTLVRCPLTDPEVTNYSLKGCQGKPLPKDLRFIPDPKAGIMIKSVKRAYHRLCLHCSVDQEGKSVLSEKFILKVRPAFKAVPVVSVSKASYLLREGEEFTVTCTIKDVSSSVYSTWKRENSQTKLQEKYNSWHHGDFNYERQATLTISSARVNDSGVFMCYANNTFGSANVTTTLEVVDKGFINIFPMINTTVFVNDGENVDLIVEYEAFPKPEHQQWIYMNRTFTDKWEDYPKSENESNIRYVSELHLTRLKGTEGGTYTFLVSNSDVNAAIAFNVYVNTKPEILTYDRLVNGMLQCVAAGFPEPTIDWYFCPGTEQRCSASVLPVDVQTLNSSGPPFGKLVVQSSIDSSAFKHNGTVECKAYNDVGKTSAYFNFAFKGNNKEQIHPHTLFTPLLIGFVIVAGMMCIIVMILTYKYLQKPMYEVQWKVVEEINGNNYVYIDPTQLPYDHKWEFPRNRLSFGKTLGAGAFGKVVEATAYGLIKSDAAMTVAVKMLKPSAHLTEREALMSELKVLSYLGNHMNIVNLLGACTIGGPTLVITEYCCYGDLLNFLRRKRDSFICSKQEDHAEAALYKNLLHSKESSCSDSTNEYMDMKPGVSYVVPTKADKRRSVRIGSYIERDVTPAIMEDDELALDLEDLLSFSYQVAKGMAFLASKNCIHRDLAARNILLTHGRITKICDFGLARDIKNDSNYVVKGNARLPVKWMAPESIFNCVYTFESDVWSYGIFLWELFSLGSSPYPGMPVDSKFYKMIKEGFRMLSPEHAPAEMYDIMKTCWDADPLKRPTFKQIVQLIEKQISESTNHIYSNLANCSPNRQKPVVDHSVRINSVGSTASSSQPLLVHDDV
Sequence of UniProt P38489 (whole entry, looked up): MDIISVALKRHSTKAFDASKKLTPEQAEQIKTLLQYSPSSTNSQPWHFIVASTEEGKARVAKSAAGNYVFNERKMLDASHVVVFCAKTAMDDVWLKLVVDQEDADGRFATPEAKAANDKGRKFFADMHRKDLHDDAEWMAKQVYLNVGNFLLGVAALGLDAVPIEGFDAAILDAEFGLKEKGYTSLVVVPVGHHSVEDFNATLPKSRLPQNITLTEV
Sequence of UniProt P11544 (whole entry, looked up): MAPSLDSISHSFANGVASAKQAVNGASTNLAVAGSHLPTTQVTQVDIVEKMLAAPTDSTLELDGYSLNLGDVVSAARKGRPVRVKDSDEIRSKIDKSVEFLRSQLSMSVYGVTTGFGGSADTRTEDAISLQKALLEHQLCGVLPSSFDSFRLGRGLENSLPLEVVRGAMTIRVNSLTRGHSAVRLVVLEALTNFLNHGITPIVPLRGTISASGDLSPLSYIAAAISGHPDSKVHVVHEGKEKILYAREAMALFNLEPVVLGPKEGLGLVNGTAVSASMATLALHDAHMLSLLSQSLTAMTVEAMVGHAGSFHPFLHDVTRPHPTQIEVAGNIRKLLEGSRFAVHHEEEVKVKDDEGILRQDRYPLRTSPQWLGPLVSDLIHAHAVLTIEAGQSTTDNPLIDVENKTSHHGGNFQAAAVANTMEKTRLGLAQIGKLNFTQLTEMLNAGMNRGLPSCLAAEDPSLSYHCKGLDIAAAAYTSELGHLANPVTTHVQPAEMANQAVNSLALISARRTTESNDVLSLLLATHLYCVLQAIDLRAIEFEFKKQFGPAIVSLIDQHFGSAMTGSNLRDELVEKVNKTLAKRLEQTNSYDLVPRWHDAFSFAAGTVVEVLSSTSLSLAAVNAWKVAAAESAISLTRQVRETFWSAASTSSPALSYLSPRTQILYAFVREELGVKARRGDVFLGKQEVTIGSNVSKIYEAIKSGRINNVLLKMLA
Sequence of UniProt P31749 (whole entry, looked up): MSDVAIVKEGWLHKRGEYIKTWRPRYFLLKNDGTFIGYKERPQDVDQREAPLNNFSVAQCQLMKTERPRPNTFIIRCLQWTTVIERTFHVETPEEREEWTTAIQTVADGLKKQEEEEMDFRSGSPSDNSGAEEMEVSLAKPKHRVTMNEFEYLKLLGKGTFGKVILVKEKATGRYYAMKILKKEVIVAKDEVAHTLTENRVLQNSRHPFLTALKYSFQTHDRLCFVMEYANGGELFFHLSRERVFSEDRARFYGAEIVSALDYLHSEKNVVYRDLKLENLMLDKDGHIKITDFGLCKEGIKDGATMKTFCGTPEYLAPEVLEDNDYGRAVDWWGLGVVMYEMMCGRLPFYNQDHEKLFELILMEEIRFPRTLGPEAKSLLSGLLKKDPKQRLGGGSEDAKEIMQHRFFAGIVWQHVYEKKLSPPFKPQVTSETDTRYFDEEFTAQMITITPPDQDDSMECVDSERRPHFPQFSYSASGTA
Sequence of UniProt P32239 (whole entry, looked up): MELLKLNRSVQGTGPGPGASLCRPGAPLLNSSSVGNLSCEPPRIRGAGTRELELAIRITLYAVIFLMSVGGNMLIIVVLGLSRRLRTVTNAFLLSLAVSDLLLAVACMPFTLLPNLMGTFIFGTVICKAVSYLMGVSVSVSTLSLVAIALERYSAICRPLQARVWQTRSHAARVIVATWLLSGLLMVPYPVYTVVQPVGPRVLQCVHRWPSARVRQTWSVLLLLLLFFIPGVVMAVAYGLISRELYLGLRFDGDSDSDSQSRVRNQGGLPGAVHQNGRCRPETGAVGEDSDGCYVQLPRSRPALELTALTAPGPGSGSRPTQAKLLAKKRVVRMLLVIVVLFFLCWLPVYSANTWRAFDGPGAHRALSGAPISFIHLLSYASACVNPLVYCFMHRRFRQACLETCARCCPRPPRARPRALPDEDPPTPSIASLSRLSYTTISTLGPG
Sequence of UniProt P23895 (whole entry, looked up): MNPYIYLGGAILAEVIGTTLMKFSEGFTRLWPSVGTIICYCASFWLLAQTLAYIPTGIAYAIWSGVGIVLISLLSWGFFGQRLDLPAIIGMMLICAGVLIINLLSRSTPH
Sequence of UniProt P33533 (whole entry, looked up): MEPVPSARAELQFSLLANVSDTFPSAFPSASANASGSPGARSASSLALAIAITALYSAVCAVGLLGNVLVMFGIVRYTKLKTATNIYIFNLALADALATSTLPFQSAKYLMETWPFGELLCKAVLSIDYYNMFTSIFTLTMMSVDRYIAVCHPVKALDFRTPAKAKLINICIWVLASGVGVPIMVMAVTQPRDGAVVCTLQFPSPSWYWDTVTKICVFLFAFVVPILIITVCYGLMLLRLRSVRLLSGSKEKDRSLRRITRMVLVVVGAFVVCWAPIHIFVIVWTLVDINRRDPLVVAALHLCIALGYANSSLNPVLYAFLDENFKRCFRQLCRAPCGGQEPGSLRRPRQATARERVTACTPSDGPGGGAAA
Sequence of UniProt Q9UL54 (whole entry, looked up): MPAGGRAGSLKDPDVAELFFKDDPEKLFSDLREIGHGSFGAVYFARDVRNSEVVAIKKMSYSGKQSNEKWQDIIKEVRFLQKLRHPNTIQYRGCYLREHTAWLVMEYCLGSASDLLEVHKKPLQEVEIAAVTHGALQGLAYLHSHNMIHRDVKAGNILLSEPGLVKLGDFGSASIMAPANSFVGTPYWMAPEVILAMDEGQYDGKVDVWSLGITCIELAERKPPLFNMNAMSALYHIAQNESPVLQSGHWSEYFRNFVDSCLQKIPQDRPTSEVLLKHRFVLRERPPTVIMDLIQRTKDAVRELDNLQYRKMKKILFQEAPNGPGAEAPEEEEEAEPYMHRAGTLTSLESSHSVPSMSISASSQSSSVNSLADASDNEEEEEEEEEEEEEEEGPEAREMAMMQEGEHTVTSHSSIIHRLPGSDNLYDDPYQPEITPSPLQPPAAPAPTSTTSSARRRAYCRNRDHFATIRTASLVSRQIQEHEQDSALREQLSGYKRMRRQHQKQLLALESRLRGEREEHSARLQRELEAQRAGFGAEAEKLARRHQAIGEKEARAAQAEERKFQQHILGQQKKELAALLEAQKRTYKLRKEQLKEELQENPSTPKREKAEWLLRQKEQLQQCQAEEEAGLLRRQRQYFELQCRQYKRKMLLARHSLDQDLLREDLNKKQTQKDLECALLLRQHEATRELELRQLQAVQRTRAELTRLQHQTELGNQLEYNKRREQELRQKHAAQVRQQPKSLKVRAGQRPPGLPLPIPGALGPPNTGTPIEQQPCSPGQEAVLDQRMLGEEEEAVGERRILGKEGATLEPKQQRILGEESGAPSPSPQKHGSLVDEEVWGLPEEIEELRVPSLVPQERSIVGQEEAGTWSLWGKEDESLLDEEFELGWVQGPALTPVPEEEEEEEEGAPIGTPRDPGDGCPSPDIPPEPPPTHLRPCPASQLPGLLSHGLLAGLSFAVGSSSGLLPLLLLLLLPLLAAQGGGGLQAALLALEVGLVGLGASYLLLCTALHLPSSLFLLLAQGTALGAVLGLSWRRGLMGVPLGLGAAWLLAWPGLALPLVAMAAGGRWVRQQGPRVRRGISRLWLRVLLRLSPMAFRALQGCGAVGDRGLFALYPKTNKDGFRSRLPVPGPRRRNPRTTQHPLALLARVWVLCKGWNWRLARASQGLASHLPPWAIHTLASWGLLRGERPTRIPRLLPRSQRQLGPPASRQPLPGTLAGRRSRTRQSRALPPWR

SMILES | target or system | assay | system | setting | how to read | endpoint | result
COc1c(N2CC3CCCNC3C2)c(F)cc2c(=O)c(C(=O)OCc3ccc([N+](=O)[O-])o3)cn(C3CC3)c12 (stereo not drawn) | Oxygen-insensitive NAD(P)H nitroreductase (nfsB, Escherichia coli K-12, UniProt P38489) | substrate | – | together with: NADH 100 µM | – | kcat | 0.61 s⁻¹
COCC1CCCCN1C(=O)n1cc(C(O)(c2ccccc2)c2ccccc2)nn1 (stereo not drawn) | Palmitoyl-protein thioesterase ABHD10, mitochondrial (Mus musculus, UniProt Q6PE15) | probe labelling, inhibitor, competitive ABPP-SILAC, refers to: Abhd10 | mouse T cells | concentration not given, 4 h, single peptide | relative to: treated over DMSO cells, lower = stronger inhibition | SILAC activity ratio | 1.22 and 1.23 and 1.48 and 1.46 and 1.35 and 1.25
CCOC(=O)[C@@H]1Cc2c(cc([N+](=O)[O-])cc2[N+](=O)[O-])[C@H](O)[C@]12C(=O)Nc1ccc(Br)cc12 | Mast/stem cell growth factor receptor Kit (KIT, Homo sapiens, UniProt P10721) | binding, competition with immobilised ligand | – | 0.1 µM | – | remaining binding | 57%
O=C1NC(=O)c2c1c1cc(F)c[n+]3c1c1c2c2cc(O)ccc2[n]1[Ru-4]312([N]=C=S)[S+]3CC[S+]1CC[S+]2CC3 (stereo not drawn) | Serine/threonine-protein kinase TAO2 (TAOK2, Homo sapiens, UniProt Q9UL54) | enzyme activity | – | 100 nM, human enzyme, together with: 10 µM ATP | relative to: untreated | remaining activity | 93%
CN(C)[C@H]1C[C@@]23CC[C@@]4(O2)C(=CC[C@]2(C)[C@@H](c5ccc6ccncc6c5)CC[C@H]24)C=C3[C@@H](O)[C@@H]1O | RAC-alpha serine/threonine-protein kinase (AKT1, Homo sapiens, UniProt P31749) | ATP probe labelling, inhibitor, KiNativ profiling | – | 1 µM | – | inhibition | -6.6%
N[C@H](C(=O)N1CCCC1)C1CCN(c2nccc3c(-c4ncc(Cl)cc4Cl)cccc23)CC1 | Gastrin/cholecystokinin type B receptor (CCKBR, Homo sapiens, UniProt P32239) | functional response, agonist | – | 10 µM | – | response | 1%
O=C1NC2(CC2)COc2ncc(F)cc2[C@H]2COCCN2c2ccn3ncc1c3n2 | – | – | Sprague-Dawley rat, female, brain | oral, 2.5 mg/kg/day, 4 weeks, end of treatment | – | organ-to-body weight ratio | 0.575 ± 0.046%
CN(C)CCCSC(=S)N1CCN(C(=O)/C=C/c2coc3ccccc3c2=O)CC1 | Nucleoprotein (N, Tomato spotted wilt virus, UniProt P25999, Y184A) | binding, microscale thermophoresis | – | 0.4883 µM | dose series | MST response | 837 a.u.
CC(C)[C@H]1NC(=O)C[C@H]2/C=C/CCSSC[C@@H](NC1=O)C(=O)N[C@H](Cc1cccc3ccccc13)C(=O)NCC(=O)O2 | Serine/threonine-protein kinase BRSK2 (BRSK2, Homo sapiens, UniProt Q8IWQ3) | enzyme activity, inhibitor | – | 10 µM | – | inhibition | 3.7%
C[C@H](NCc1ccc(-c2ccc(C(F)(F)F)cc2)cc1)C(N)=O | Atypical kinase COQ8A, mitochondrial (COQ8A, Homo sapiens, UniProt Q8NI60) | cell-free assay, competition with immobilised ligand | – | 1 µM | – | inhibition | 11%
C[C@@H](O)[C@@H]1CN([C@H](Cc2ccc3ccccc3c2)CN2CCC[C@H]2CN2CCNC[C@@H]2CO)CCN1CCC12CC3CC(CC(C3)C1)C2 | Delta-type opioid receptor (Oprd1, Rattus norvegicus, UniProt P33533) | radioligand binding | rat brain membranes | 500 nM, pH 7.5, 25 °C, together with: 2 nM [3H]DPDPE | – | remaining binding | 93%
CC(C)Oc1ccc(B(O)O)c(F)n1 | Trypsin (Sus scrofa, UniProt P00761) | – | – | – | relative to: Ki trypsin over Ki AmpC | selectivity ratio | > 8330
N[C@H](Cc1ccccc1)P(=O)(O)O | Phenylalanine/tyrosine ammonia-lyase (PAL, Rhodotorula toruloides, UniProt P11544) | inhibitor | – | 200 µM, together with: L-Phe 5 mM | – | reaction rate reduction | 40%
C[N+](C)(C)CCCCCNc1ccc([N+](=O)[O-])c2nonc12 | emrE (Escherichia coli, UniProt P23895) | proteoliposome transport | – | concentration not given, 200 s | – | fluorescence quench after dithionite | 80%
CS(C)(=O)=Nc1ccc(-c2ccc(-c3nc4cc(O[C@@H]5CO[C@H]6[C@@H]5OC[C@H]6O)[nH]c4cc3F)cc2)cc1 | Wee1-like protein kinase (WEE1, Homo sapiens, UniProt P30291) | enzyme activity, inhibitor | – | 10 µM | – | inhibition | 10%

Excerpt of the above:
SMILES | target or system | assay | system | setting | how to read | endpoint | result
CC(C)[C@H]1NC(=O)C[C@H]2/C=C/CCSSC[C@@H](NC1=O)C(=O)N[C@H](Cc1cccc3ccccc13)C(=O)NCC(=O)O2 | Serine/threonine-protein kinase BRSK2 (BRSK2, Homo sapiens, UniProt Q8IWQ3) | enzyme activity, inhibitor | – | 10 µM | – | inhibition | 3.7%
